Published values pooled from the literature.
Each numbered part is a random draw from the data of one study; scales do not carry over between parts.

Block 1 — method: RNA Bind-n-Seq; molecule type: RNA; sample: in vitro; concentration: 1 µM; notes: whole 134-nt RNA, ends assumed; with: 150 mM KCl; relative to: input library; reading: higher = stronger binding
Target: Ras GTPase-activating protein-binding protein 1, C-terminal RGG region (G3BP1, Homo sapiens, UniProt Q13283)
UniProt Q13283, sequence (whole entry, looked up): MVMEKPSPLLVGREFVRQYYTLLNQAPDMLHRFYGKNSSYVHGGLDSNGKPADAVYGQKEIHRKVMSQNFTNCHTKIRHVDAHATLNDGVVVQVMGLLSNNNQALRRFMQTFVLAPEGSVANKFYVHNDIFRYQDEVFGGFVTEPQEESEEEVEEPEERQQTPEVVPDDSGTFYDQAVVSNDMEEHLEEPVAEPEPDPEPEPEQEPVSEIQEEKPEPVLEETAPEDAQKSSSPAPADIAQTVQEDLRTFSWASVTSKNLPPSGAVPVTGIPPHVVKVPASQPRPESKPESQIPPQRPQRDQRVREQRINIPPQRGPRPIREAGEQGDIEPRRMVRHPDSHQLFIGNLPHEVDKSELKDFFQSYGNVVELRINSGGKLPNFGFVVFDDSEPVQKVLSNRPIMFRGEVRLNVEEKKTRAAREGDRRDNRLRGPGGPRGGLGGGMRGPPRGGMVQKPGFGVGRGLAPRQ
| Oligonucleotide | log2 enrichment |
| --- | --- |
| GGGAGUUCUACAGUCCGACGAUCGUCCUGUGCUACACAUCGUAUGUACCGAAUCGGGGAAAGGGGAGGGGAAAAAAAGGGGAAAGUAUUAUGUUACGCCGUUCGGAUCUGCACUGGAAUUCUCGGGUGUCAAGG | 1.46 |
| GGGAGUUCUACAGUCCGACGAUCGUCCUGUGCUACACAUCGUAUGUACCGAAUCGGGAAAAAGGGAAAAAGGAAAAAGGGGAAAGUAUUAUGUUACGCCGUUCGGAUCUGCACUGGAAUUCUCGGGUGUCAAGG | -1.16 |
| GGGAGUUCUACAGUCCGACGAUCUGGGAGGUGGAUUUUGCUUAUUUUUUUAGCUCAUUUCCAGGGGUGGGAAUUUUUUUUUAAUAUGUGUCAUGAAUAAAGUUGUUUUUGAAAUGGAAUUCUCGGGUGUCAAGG | 3.36 |
| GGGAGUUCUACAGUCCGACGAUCUCCUGUGCUACACAUCGUAUGUACCGAAUCGGUUUUUUUGGUUUUUUUGGAAAAAAAGGAAAGUAUUAUGUUACGCCGUUCGGAUCUGCAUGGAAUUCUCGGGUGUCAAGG | -1.35 |
| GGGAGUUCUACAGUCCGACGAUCCUAGAGAGCUGUAGUACACAUGGAUGAACGACGAGAAGAACAAAUUGUACAGUUACUGAAUUCUGUUCAAGCGAAGAAUGAUAAAGAGUCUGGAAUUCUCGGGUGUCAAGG | -0.458 |
| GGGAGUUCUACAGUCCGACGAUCCAAGUCCUGUGCUACACAUCGUAUGUACCGAAUCGGGUUUGGUUUGGGGUUUGGGAAAGUAUUAUGUUACGCCGUUCGGAUCUGCACUUCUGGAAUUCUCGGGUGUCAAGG | 0.0851 |
| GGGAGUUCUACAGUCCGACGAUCCACAGACAACACGCACACACACAGACACAGAGGGAAGGGGUUGGGAUGGGGACAGGGUGCACAGCAGGGCGGGGUAGGACCCCAGCCCCUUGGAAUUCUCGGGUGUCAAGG | 0.415 |
| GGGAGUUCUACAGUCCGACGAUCCCUCACCACUCCUUUCUCUUUCAUUCAGUUCCGCUCAGUGGACGAGACUACCCAGGCUAUGGCCUUUGAUGGCAUCAUCUUCCAGGGCCAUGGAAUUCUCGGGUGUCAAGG | -0.379 |
| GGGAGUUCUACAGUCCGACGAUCUGAAGACACAGCAUCCACCCGAUCUUCAUUCACUGUCCAAGACCUUAAACCUUUUACAGAAUAUGUGUUUAGGAUUCGCUGUAUGAAGGAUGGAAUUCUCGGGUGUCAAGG | -0.509 |

Block 2 — method: RNA Bind-n-Seq; molecule type: RNA; sample: in vitro; concentration: 365 nM; relative to: no-protein control; reading: higher = stronger binding
Target: RNA binding protein fox-1 homolog 2, RRM domain, GST-SBP tag (RBFOX2, Homo sapiens, UniProt O43251-10, residues 100-194)
Notes: natural RNA segment, single round, ends assumed
Construct (chain): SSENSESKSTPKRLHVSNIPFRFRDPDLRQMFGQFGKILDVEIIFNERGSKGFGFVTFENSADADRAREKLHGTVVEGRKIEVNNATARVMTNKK
| Oligonucleotide | RBNS enrichment (R) |
| --- | --- |
| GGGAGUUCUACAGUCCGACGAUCGAUGUAUGUGCGGCCAGUGACUUCCCCAGGAGUGUGGAGGGGGUGGUGAGGAGGAGCACCUGGGCUCUCUACCCCUCUCCUCACAGAAGUACCUGAAACUAGGUCUGGGGUGGAAUUCUCGGGUGCCAA | 0.864 |
| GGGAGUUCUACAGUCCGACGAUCGCGUUAAACGGAGGUGGCAGAAAUUUGUCAAGAAGGCCUUAUCCAUUUCGAUUGUGUGACAGAUUGAAAUUUAUUGUUUACAUUGGGGAAUGUAUCUCAAAUUUUUAAAUUGGAAUUCUCGGGUGCCAA | 0.63 |
| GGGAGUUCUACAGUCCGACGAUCACGCCUCACAAUCAUGGUGGAAGGCAAGGAGGAGCAAAUCAUGUCUUAUACAUGGAUGGCAGCAGGCAAAGAGAGAACUUGUGCAGGGGAACUCUUUAUAAAACCGUCCGUGGAAUUCUCGGGUGCCAA | 0.49 |
| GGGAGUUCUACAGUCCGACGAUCGGUUUUUCUGUUAGCUUGGACCACUGCCUCAUCAGACAAUAUCAGCAGAUGUGCCUCAGUUUCCCCAUCAGACACCUACCUCACCAGGGCAUUGUGGCAGAAUUUUAGGAUGGAAUUCUCGGGUGCCAA | 0.592 |
| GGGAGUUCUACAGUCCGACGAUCGUUUCCUCACGCUGGUUUCUCUGGUUUGGGGCUCCACGGCCAAGUCCUUGUUGGCUGAGGGCAGGACCUUGUAACCCUCUUCCAUGCACAACUUGCACACCCCCUGUUCCUGGAAUUCUCGGGUGCCAA | 1.32 |
| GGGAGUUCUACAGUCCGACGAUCUAUUCCUGGCCAUGUUUGAAUGAGCCUCUUAAAAUAAACUUAGAGCCAUGCAAAUGCCAGCAGCUUAAUGGAUUUCAUGGAAUGAAAUACCGUGAUUAACUCAUAGCUACUGGAAUUCUCGGGUGCCAA | 0.296 |
| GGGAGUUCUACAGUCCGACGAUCUAAAUAUUAAGGAGAAUUCAUGACUCUUGACAGCUUUUCUCUCUUCACUCCCCAAGUCAAGGGGAGGGGUGGCAGGGGUCUGUUUCCUGGAAGUCAGGCUCAUCUGGCCUUGGAAUUCUCGGGUGCCAA | 0.182 |
| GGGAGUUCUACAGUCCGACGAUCGAGCAGAACAGGUUUGUCAUCUCCGCAAGGCCAGAAAGUGAUCACAAAAAGAGGCAGAUGAUAGACACUGGGGUAGGGUCAUACCACAGGGAAAUACCUUUCCUGGGCUUUGGAAUUCUCGGGUGCCAA | 0.379 |

Block 3 — method: RNA Bind-n-Seq; molecule type: RNA; sample: in vitro; concentration: not given; relative to: input RNA pool; reading: higher = stronger binding
Target: RING finger protein unkempt homolog, zinc fingers 1-6, GST-SBP tag (UNK, Homo sapiens, UniProt Q9C0B0, residues 30-357)
UniProt Q9C0B0, sequence (30-357, looked up): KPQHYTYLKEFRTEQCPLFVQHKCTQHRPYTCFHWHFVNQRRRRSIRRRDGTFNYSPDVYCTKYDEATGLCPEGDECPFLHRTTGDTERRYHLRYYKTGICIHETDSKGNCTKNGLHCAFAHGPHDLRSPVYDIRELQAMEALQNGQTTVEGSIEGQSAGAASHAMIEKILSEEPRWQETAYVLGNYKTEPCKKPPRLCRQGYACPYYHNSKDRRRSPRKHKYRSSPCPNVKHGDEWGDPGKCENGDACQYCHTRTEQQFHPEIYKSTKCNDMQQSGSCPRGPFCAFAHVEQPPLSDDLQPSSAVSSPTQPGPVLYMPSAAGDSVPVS
Notes: RNA with constant flanks, human and mouse sites, ends assumed
| Oligonucleotide | bound/input enrichment |
| --- | --- |
| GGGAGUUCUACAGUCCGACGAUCAAAGGGACUCAGAAGAUGACCCGCACCCCACGGAGUUCUGGGGGUGUGCCAAGGUCUUCUGGUAAACCUCACAAACACCUGCCUCCUGCAGCUCUGCAUCUGAUUGCCUAUUACAAAGAACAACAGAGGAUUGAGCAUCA | 0.144 ratio |
| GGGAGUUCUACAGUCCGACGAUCCACUCCCACGGUGGAGGGGACAGCAUGAUGAUGAUGCCUAUGACCUUCUACUUUGACUUUAAGAAUGUGAAUCUAUUGUUUUCCGGUUUGGUAAUCAAUACACCUGGAGAAAUGGCUGGACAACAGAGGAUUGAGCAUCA | 0.114 ratio |
| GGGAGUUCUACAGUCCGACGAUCACAAGAUGACCUUCUGUCGACCUUUAAACUAUAAACGCUGGUUGGAAAUGUUCCCAUGACUGUAAGUCUGCCUGUUGAUUCCUUUUCUUCCAACUACCAUGAUUCUCCUGUGGACCCAGACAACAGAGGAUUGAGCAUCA | 0.276 ratio |
| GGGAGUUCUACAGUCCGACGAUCAUUAAUGCUCUAAUGCAUGCUUUGAUUGAAUUACGGACAAAGGACCCCAACAUAAAAAGUUUAGUUGUUUCUCAGUUUACCACAUUCUUGUCUUUAAUAGAAACACCUCUUAAAGCCUCACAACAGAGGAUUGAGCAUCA | 0.987 ratio |
| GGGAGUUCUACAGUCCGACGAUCUUUUUUACAUUUUUUGGGCAGCAAUUUAAAUGUUAUGACUAUGUAAACUACUUCUCUUGUUAGGUAAUUUUUUUCACCUAGAUUUUUUUCCCAAUUGAGAAAAAUAUAUACUAAACAAAACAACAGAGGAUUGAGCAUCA | 3.72 ratio |
| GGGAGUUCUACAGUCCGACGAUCGUGGAGUGCUGCCAAGGGGACUGGUGUAACAGGAACAUCACGGCCCAGCUGCCCACUAAAGGAAAAUCCUUCCCUGGAACACAGAAUUUCCACUUGGAGGUUGGCCUCAUUAUUCUCUCUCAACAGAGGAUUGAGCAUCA | 0.18 ratio |
| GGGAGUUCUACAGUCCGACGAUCCGGAAUGAAGUUGUUGGUUUAAUUUUCCGUUUGACAAUAUUUGGUGCAGUGACAUACUUUACUAUCAAAUGGAUGGUAGAUGCAAUUGAUCCAACCAGAAAGCAAAAAGUAGAAGCUCAGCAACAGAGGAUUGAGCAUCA | 0.231 ratio |
| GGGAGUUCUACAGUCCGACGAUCGCCUGGAGCAAGGUGGAGGGUGCAGAGGGGCUGGGGUAGGGCAUGUAGGAGGGAGGUGGGUGGGUCAGGUGAGUGGAAGGGGUGUUGUAUAUUGUGUUGAUGACGUACGUUAUUUCCAUGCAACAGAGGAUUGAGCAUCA | 0.732 ratio |

Block 4 — method: protein-binding microarray; molecule type: double-stranded DNA, one strand shown; sample: in vitro; concentration: 2540 nM top; notes: 60-bp whole probe; with: salmon DNA 0.4 mg/ml; relative to: random background probes; reading: higher = stronger binding; all sequences stand within: GCCTAGCAC … GTCTTGATTCGCTTGACGCTGCTG
Target: Interferon regulatory factor 3, full length, phosphomimetic (IRF3, Homo sapiens, UniProt Q14653, residues 1-427, S386D/S396D/S398D/S402D/T404D/S405D)
Construct (chain): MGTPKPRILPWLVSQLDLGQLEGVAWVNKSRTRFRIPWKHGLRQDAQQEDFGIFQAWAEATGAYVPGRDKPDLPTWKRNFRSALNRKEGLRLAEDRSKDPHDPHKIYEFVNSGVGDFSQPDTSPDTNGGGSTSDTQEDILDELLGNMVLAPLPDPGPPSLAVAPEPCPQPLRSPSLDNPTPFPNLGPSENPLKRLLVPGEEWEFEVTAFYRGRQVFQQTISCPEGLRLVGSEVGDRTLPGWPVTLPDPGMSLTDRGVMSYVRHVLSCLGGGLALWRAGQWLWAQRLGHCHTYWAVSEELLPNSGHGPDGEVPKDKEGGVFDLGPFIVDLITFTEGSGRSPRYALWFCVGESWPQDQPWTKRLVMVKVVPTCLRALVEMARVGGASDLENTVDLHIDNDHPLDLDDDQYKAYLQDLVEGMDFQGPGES
| Oligonucleotide | fitted relative affinity [z-score] |
| --- | --- |
| TTAGGACTGGGGTATAGGTTAGTGCTA | -0.801 |
| TCAACTCAGCACTTTGGCACTGTGCTA | -0.293 |
| GGCTTTGACTCTTTCTGTCAGTGCTAG | 0.0318 |
| GACGATCTTAGACTGGAGACGTGCTAG | 0.221 |
| TTAGATATCGGGTTTCGCTTAGTGCTA | 1.53 |
| GACGGACTGGACTATCGGTACGTGCTA | -0.279 |
| GACGGACTGGACGATCGGGACGTGCTA | -0.342 |
| TTAGATCTCAGACTGGCTTAGTGCTAG | -0.218 |
| GACGGACTGGACTTTAGGGACGTGCTA | -0.718 |
| GACGATTTTAGTCTCGAGACGTGCTAG | 0.941 |
| TCAGGTCTCCTTATCCTTTAGTGCTAG | 3.46 |
| CACTTTTCCTACATCAGCTGGTGCTAG | 2.45 |
| TTAGGTTTGGGGTTTCGGTTAGTGCTA | 2.27 |
| TTCGGTATCCTTTTCCTTTAGTGCTAG | 8.26 |
| GACGGTATCGGTTTTCGGGACGTGCTA | 5.48 |
| TCAGCTTCCTCTCTGCCACTGTGCTAG | 0.61 |
| CAATACCTTATGAATGTGTTGTGCTAG | 0.832 |
| GACGGTATCGGGACTGAGGACGTGCTA | 1.84 |
| TCAGCTCTAGGTTCTCTGAAGGTGCTA | -0.359 |
